Results gathered from unrelated publications.
± marks the error that the study gave.
YWHAZ: 14-3-3 protein zeta/delta (YWHAZ, Homo sapiens, UniProt P63104)
UniProt P63104, sequence (whole entry, looked up): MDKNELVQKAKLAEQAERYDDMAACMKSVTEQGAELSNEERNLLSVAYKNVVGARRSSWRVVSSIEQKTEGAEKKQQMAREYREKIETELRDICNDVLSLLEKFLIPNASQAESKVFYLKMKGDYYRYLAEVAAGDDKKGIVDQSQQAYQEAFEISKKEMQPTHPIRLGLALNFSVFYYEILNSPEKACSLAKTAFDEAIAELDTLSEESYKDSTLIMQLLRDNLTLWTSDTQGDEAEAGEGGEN
LRP6 E1 domain: Low-density lipoprotein receptor-related protein 6, E1 domain (LRP6, Homo sapiens, UniProt O75581)
UniProt O75581, sequence (whole entry, looked up): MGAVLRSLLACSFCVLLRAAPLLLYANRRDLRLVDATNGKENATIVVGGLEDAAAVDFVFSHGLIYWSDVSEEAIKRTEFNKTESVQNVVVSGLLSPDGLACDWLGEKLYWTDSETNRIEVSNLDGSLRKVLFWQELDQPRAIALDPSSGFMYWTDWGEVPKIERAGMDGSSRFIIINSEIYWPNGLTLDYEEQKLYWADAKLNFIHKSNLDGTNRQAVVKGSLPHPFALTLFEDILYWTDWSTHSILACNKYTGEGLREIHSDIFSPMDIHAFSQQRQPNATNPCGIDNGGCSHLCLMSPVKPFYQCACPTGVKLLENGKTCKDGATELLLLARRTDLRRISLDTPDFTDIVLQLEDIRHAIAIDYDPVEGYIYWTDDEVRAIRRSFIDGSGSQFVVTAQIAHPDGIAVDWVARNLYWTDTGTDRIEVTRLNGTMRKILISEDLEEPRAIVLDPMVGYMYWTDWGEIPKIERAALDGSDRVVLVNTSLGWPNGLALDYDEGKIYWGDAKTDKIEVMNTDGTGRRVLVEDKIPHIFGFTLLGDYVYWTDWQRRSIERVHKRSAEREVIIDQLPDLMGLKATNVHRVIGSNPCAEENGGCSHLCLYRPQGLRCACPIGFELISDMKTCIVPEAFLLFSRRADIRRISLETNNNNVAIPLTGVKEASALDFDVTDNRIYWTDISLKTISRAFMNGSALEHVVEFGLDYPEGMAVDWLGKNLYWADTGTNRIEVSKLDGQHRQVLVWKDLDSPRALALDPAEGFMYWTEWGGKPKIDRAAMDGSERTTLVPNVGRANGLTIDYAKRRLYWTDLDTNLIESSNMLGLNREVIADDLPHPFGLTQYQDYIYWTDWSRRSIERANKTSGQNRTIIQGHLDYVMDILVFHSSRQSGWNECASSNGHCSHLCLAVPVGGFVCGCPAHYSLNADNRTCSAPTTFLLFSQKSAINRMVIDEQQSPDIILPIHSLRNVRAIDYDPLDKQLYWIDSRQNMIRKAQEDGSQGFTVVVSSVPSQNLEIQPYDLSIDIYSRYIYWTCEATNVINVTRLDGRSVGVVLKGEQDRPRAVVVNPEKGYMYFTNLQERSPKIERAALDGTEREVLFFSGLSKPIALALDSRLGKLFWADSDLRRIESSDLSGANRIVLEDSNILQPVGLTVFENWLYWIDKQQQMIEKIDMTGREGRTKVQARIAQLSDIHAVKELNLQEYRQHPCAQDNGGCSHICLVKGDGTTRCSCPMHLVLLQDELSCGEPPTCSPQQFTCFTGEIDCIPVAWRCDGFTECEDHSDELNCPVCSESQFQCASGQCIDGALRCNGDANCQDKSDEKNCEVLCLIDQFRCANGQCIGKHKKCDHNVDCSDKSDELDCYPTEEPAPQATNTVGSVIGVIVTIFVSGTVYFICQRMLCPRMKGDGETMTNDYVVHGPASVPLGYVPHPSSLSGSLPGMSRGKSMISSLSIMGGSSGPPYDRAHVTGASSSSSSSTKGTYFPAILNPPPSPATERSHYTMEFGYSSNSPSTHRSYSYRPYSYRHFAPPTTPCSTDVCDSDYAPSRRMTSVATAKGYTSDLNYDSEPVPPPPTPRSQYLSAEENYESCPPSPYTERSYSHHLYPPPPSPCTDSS
UniProt P43403, sequence (whole entry, looked up): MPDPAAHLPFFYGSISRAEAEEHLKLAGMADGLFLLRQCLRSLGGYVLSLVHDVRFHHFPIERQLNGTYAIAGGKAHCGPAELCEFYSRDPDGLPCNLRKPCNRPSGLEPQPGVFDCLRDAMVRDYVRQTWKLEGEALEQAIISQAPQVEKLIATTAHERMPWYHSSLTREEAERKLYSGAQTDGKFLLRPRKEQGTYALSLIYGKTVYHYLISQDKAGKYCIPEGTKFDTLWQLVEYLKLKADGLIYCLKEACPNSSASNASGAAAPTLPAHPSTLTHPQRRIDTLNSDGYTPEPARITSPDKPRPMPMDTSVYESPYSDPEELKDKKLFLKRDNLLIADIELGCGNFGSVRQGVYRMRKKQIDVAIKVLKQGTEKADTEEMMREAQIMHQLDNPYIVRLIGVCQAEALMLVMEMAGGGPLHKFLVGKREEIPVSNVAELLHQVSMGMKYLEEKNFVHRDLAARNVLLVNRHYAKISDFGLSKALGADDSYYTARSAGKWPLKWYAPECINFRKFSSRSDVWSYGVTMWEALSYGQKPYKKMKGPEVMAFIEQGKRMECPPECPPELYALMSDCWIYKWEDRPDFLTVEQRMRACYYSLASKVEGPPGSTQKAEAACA
UniProt Q9H093, sequence (whole entry, looked up): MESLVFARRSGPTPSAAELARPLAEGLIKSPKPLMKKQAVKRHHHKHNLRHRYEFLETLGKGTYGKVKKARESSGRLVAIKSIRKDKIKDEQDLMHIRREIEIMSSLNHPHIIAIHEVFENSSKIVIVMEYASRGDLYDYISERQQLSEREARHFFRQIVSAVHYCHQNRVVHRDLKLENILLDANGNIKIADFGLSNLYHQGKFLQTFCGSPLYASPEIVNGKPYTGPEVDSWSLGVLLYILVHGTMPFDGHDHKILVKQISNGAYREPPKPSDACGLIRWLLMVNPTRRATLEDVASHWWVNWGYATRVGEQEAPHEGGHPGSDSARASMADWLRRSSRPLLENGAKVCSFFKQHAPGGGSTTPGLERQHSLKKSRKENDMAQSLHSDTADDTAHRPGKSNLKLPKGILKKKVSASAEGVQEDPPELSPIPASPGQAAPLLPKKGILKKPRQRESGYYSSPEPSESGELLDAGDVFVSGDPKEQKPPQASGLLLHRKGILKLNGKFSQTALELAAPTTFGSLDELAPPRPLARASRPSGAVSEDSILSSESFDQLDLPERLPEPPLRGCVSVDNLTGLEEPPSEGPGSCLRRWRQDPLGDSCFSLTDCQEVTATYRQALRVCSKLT
UniProt P33913, sequence (whole entry, unmodified, looked up): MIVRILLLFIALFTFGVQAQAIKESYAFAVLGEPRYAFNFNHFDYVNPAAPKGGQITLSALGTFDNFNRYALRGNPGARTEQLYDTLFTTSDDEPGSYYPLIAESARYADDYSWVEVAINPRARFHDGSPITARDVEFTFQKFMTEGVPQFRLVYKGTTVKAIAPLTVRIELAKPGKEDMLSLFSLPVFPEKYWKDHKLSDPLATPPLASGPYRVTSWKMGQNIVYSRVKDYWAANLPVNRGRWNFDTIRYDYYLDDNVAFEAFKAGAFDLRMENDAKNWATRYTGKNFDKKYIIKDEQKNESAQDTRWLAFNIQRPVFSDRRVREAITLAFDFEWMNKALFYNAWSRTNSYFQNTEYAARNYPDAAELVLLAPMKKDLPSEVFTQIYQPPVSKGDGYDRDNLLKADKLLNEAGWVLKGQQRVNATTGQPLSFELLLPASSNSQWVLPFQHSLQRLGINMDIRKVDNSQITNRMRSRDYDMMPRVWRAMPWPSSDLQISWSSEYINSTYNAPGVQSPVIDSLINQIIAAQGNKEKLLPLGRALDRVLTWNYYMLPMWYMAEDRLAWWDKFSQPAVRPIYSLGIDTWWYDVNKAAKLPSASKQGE
UniProt Q14145, sequence (whole entry, looked up): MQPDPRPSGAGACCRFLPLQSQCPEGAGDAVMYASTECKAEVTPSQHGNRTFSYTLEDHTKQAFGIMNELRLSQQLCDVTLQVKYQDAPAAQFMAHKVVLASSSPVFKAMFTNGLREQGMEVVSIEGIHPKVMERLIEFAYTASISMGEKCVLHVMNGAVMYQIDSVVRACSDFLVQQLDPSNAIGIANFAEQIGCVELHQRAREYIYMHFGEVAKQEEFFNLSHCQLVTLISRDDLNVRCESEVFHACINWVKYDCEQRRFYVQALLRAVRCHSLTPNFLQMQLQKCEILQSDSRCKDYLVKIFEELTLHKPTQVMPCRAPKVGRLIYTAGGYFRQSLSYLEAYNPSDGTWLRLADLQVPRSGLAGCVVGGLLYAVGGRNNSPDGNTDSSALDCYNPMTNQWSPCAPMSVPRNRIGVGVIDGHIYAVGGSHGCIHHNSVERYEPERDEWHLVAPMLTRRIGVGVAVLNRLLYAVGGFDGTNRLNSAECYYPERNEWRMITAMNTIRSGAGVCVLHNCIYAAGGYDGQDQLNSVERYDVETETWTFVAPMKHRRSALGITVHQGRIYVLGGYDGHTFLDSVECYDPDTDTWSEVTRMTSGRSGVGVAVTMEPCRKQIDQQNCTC
UniProt Q8N126, sequence (whole entry, looked up): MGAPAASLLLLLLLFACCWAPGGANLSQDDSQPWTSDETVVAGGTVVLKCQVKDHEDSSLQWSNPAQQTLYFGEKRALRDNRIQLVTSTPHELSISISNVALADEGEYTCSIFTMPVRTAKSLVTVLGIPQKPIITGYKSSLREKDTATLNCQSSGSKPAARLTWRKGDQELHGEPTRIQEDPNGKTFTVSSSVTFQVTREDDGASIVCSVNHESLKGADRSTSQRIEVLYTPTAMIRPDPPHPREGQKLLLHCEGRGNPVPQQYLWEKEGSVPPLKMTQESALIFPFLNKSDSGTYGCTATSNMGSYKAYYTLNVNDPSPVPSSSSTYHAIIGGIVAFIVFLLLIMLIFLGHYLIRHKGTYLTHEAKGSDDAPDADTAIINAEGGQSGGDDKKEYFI
UniProt Q9H7M9, sequence (whole entry, looked up): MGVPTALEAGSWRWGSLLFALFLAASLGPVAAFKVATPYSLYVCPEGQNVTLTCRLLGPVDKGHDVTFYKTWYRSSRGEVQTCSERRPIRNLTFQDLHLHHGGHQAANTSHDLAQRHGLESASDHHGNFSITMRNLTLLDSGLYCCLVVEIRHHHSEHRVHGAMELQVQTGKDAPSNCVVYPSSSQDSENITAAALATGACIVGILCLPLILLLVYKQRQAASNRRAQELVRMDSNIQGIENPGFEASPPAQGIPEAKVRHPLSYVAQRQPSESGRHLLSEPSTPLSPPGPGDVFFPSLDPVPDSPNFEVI

With `COCC[C@H](NC(=O)[C@@H](C)NC(=O)[C@@H](NC(=O)[C@@H](NC(=O)[C@@H](F)CC(C)(C)C)C(C)(C)O)[C@@H](C)c1ccccc1)C(=O)N(C)Cc1ccccc1` the Kd was 540 nM (G3BP1 (Homo sapiens, UniProt Q13283); binding, SPR).
For `CC(=O)N[C@@H](CCC(=O)O)C(=O)N[C@@H](CCC(=O)O)C(=O)N[C@@H](CCC(=O)O)C(=O)N[C@@H](Cc1c[nH]c2ccccc12)C(=O)N[C@@H](C)C(=O)N[C@@H](CCCNC(=N)N)C(=O)N[C@@H](CCC(=O)O)C(=O)N[C@@H](CC(C)(C)C)C(=O)NCC(=O)N[C@@H](C)C(=O)N[C@@H](CCC(N)=O)C(=O)N[C@@H](CC(C)C)C(=O)N[C@@H](CCCNC(=N)N)C(=O)N[C@@H](CCCNC(=N)N)C(=O)N[C@@H](C)C(=O)N[C@@H](C)C(=O)N[C@@H](CC(=O)O)C(=O)N[C@@H](CC(=O)O)C(=O)N[C@@H](CC(C)C)C(=O)N[C@@H](CC(N)=O)C(=O)N[C@@H](C)C(=O)N[C@@H](CCC(N)=O)C(=O)N[C@@H](Cc1ccc(O)cc1)C(=O)N[C@@H](CCC(=O)O)C(=O)N[C@@H](CCCNC(=N)N)C(=O)N[C@@H](CCCNC(=N)N)C(=O)N[C@@H](CCCNC(=N)N)C(N)=O`, the Kd was 7 nM (Induced myeloid leukemia cell differentiation protein Mcl-1 homolog, residues 152-308 (Mus musculus, UniProt P97287); binding, SPR; 0.2% DMSO).
`CC(=O)N[C@@H](CCCNC(=N)N)C(=O)N[C@H](C(=O)N1CCC[C@H]1C(=O)N[C@@H](COP(=O)(O)O)C(=O)N[C@@H](CC(C)C)C(=O)N1CCC[C@H]1C(=O)N[C@@H](C)C(=O)N1CCC[C@H]1C(c1ccccc1)c1ccccc1)[C@@H](C)O` gave a Kd of 3280 nM (YWHAZ; binding, ITC).
The Kd of `CC(=O)N[C@@H](Cc1ccc(O)cc1)C(=O)N[C@@H](CC(N)=O)C(=O)N1CCC[C@H]1C(=O)N[C@@H](Cc1ccccc1)C(=O)N[C@@H](CCC(=O)O)C(=O)N[C@@H](CCC(=O)O)C(=O)NCC(=O)NCC(N)=O` is reported as 9400 ± 1200 nM (EH domain-containing protein 1, EH domain (Homo sapiens, UniProt Q9H4M9); binding, isothermal titration calorimetry; 20 °C, 15 mM NaCl).
For `CC(C)C[C@H](NC(=O)[C@@H](NC(=O)c1ccc2c(c1)C(=O)OC21c2ccc(N(C)C)cc2Oc2cc(N(C)C)ccc21)C(C)C)C(=O)N[C@@H](Cc1ccc(O)cc1)C(=O)N[C@@H](C)C(=O)N[C@@H](CO)C(=O)N[C@H](C(=O)N[C@@H](CC(N)=O)C(=O)N1CCC[C@H]1C(=O)N[C@@H](CCC(=O)O)C(=O)N[C@@H](Cc1ccc(OP(=O)(O)O)cc1)C(=O)N[C@@H](Cc1ccccc1)C(=O)N[C@@H](CO)C(=O)N[C@@H](C)C(=O)N[C@@H](C)C(=O)N[C@@H](CC(=O)O)C(=O)N[C@H](C(=O)N[C@@H](Cc1ccc(O)cc1)C(=O)N[C@@H](CC(=O)O)C(=O)O)C(C)C)C(C)C`, the Kd was 806 nM (Tyrosine-protein kinase ZAP-70, SH2 domains (ZAP70, Homo sapiens, UniProt P43403); binding).
With `CC(=O)NC1C(O)OC(CO)C(OC2OC(CO)C(OC3OC(CO)C(O)C(O)C3O)C(O)C2O)C1O` (centres unmarked) the Kd was 153 nM (sly (Streptococcus suis, UniProt Q55996, D469A); binding).
`C=CC[C@H]1OC(=O)CCNC(=O)[C@H](C)N(C)C(=O)[C@H]([C@@H](C)CC)N(C)C(=O)[C@H]([C@@H](C)CC)NC(=O)[C@@H]2[C@@H](C)CCN2C1=O` has a Kd of 4980 nM (Platelet-derived growth factor receptor beta, extracellular domain (PDGFRB, Homo sapiens, UniProt P09619); SPR; 16 °C, extracellular domain immobilised).
`CC(C)C[C@H](NC(=O)[C@H](CCCCN)NC(=O)CNC(=O)[C@H](Cc1ccccc1)NC(=O)[C@H](CO)NC(=O)[C@H](Cc1c[nH]c2ccccc12)NC(=O)[C@H](Cc1c[nH]c2ccccc12)NC(=O)[C@@H]1CCCN1C(=O)[C@@H]1CCCN1)C(=O)N[C@@H](Cc1c[nH]cn1)C(=O)N[C@@H](C)C(=O)N1CCC[C@H]1C(=O)O` gave a Kd of 12300 nM (V-type immunoglobulin domain-containing suppressor of T-cell activation, IgV domain (VSIR, Homo sapiens, UniProt Q9H7M9); binding, microscale thermophoresis).
With `CC(C)C[C@H](NC(=O)[C@H](CCCNC(=N)N)NC(=O)[C@H](CC(C)C)NC(=O)[C@H](CO)NC(=S)Nc1ccc2c(c1)C(=O)OC21c2ccc(O)cc2Oc2cc(O)ccc21)C(=O)N[C@@H](CCCCN)C(=O)N[C@@H](CS)C(=O)NCC(=O)N[C@@H](CCP(=O)(O)O)C(=O)NCC(=O)N1CCC[C@H]1C(=O)N[C@H](C(=O)N[C@@H](Cc1c[nH]c2ccccc12)C(=O)N[C@@H](CC(C)C)C(=O)N[C@H](C(=O)N1CCC[C@H]1C(=O)N[C@@H](CCCNC(=N)N)C(=O)O)C(C)C)C(C)C` the Kd was 53400 nM (14-3-3 protein theta (Homo sapiens, UniProt P27348); binding, fluorescence anisotropy; pH 7.5, FITC-labelled phosphopeptide titration).
For `O=C1NC2(CC2)COc2ncc(F)cc2[C@H]2COCCN2c2ccn3ncc1c3n2`, “organ-to-brain weight ratio” read 2.96 ± 0.36% (Sprague-Dawley rat, male, adrenals; oral, 20 mg/kg/day, 4 weeks dosing, end of recovery).
`CC[C@H](C)[C@@H]1NC(=O)[C@@H]2CCCN2C(=O)[C@H](Cc2c[nH]c3ccccc23)NC(=O)[C@H](CO)NC(=O)[C@H](Cc2c[nH]c3ccccc23)NC(=O)[C@H](CC(N)=O)NC(=O)[C@H](CCCCN)NC(=O)[C@H](CCSC)NC(=O)[C@@H]2CSCCC(=O)N3CN(CN(C3)C(=O)CCSC[C@H](NC(=O)[C@H](C)N)C(=O)N3CCC[C@H]3C(=O)N[C@@H](Cc3ccccc3)C(=O)NCC(=O)N2)C(=O)CCSC[C@@H](C(=O)N[C@H](C(=O)N[C@@H](CC(N)=O)C(=O)N[C@@H](CCCCN)C(=O)N(C)CC(=O)N(C)CC(=O)N(C)CC(=O)N(C)CC(=O)N(C)CC(=O)N(C)CC(=O)N[C@@H](CCCCNC(=O)c2ccc(C(=O)O)c(-c3c4ccc(=O)cc-4oc4cc(O)ccc34)c2)C(N)=O)[C@@H](C)O)NC(=O)[C@H](Cc2c[nH]c3ccccc23)NC1=O` has a Kd of greater than 2000 nM (Cell adhesion molecule 3 (CADM3, Homo sapiens, UniProt Q8N126); fluorescence polarization).
`O=C(N[C@@H]1c2ccccc2C[C@H]1N1CCCC1)c1ccc(-c2ccnc3[nH]ccc23)nc1` gave a Kd of 78 nM (NUAK2 (Homo sapiens, UniProt Q9H093); binding, competition with immobilised ligand).
The Kd of `CC[C@H](C)[C@@H]1NC(=O)[C@H](C)NC(=O)[C@H](CCC(N)=O)NC(=O)[C@@H](NC(=O)CN)CSSC[C@@H]2NC(=O)CNC(=O)[C@H](C)NC(=O)[C@H](CC(C)C)NC(=O)[C@@H]3CSSC[C@@H](C(=O)NCC(=O)O)NC(=O)[C@H](Cc4ccccc4)NC(=O)CNC(=O)[C@H](CC(N)=O)NC(=O)[C@@H]4CCCN4C(=O)CNC(=O)[C@H](CSSC[C@H](NC(=O)[C@H](CCCNC(=N)N)NC(=O)[C@H](CCC(N)=O)NC(=O)[C@H](CCCNC(=N)N)NC(=O)[C@H](CCCCN)NC(=O)[C@H](C(C)C)NC(=O)[C@H](CCCNC(=N)N)NC(=O)[C@H](CC(N)=O)NC1=O)C(=O)N[C@@H](CCCCN)C(=O)N[C@@H](CCC(N)=O)C(=O)N[C@@H](CC(=O)O)C(=O)N[C@@H](CO)C(=O)N[C@@H](CC(=O)O)C(=O)N3)NC(=O)[C@H](C(C)C)NC2=O` is reported as 33.5 nM (LRP6 E1 domain; binding, SPR; pH 7.5).
The Kd of `CC(=O)N[C@@H](CCCNC(=N)N)C(=O)N[C@H](C(=O)N1CCC[C@H]1C(=O)N[C@@H](COP(=O)(O)O)C(=O)N[C@@H](CC(C)C)C(=O)N1CCC[C@H]1C(=O)NCC(=O)N1CCC[C@H]1C(c1ccccc1)c1ccccc1)[C@@H](C)O` is reported as 5620 ± 500 nM (YWHAZ; isothermal titration calorimetry; first duplicate).
With `CC(C)C[C@H](NC(=O)CNC(=O)[C@H](C)NC(=O)[C@H](C)NC(=O)[C@H](CC(=O)O)NC(=O)[C@H](C)NC(=O)[C@@H]1CCCN1C(=O)[C@H](CCCCN)NC(=O)CNC(=O)[C@@H]1CCCN1C(=O)[C@@H]1CCCN1C(=O)[C@@H]1CCCN1C(=O)[C@H](CCC(=O)O)NC(=O)CN)C(=O)N[C@H](C(=O)O)C(C)C` the Kd was 31000 nM (F-box only protein 22 (Homo sapiens, UniProt Q8NEZ5); binding, SPR).
The Kd of `C/C=C/C(=O)NCCCC[C@H](NC(=O)[C@H](CCCNC(=N)N)NC(=O)[C@H](C)NC(=O)[C@@H](NC(=O)[C@H](CCC(N)=O)NC(=O)[C@H](CCCCN)NC(=O)[C@@H](NC(=O)[C@H](CCCNC(=N)N)NC(C)=O)[C@@H](C)O)[C@@H](C)O)C(=O)N[C@@H](CO)C(=O)N[C@H](C(=O)NCC(=O)NCC(=O)N[C@@H](CCCCN)C(=O)N[C@@H](C)C(=O)N1CCC[C@H]1C(N)=O)[C@@H](C)O` is reported as 2260 nM (Protein AF-9 (Homo sapiens, UniProt P42568); binding, ITC; pH 7.5).
With `CC(C)C[C@@H]1NC(=O)[C@@H]2CSSC[C@@H](C(=O)NCC(=O)O)NC(=O)[C@H](Cc3ccccc3)NC(=O)CNC(=O)[C@H](CC(N)=O)NC(=O)[C@@H]3CCCN3C(=O)CNC(=O)[C@@H]3CSSC[C@H](NC(=O)[C@H](CCCNC(=N)N)NC(=O)[C@@H]4CCCN4C(=O)[C@H](CCCNC(=N)N)NC(=O)[C@H](CCCCN)NC(=O)[C@H](C(C)C)NC(=O)[C@H](C(C)C)NC(=O)[C@H](CC(N)=O)NC(=O)[C@H](C(C)C)NC(=O)[C@H](CO)NC(=O)[C@H](CCC(N)=O)NC(=O)[C@@H](NC(=O)CN)CSSC[C@H](NC(=O)CNC(=O)[C@H](C)NC1=O)C(=O)N[C@@H](C(C)C)C(=O)N3)C(=O)N[C@@H](CCCCN)C(=O)N[C@@H](CCC(N)=O)C(=O)N[C@@H](CC(=O)O)C(=O)N[C@@H](CO)C(=O)N[C@@H](CC(=O)O)C(=O)N2` the Kd was 59.2 nM (LRP6 E1 domain; binding, SPR; pH 7.5).
For `CC(CO)C1CN2C(=O)[C@H](CC(=O)O)NC(=O)CC(CC3CC3)NC(=O)[C@H](CCC(=O)O)NC(=O)CNC(=O)[C@H]([C@@H](C)O)NC(=O)[C@H](CCC(=O)O)NC(=O)[C@@H]2C1(F)F` (some centres unmarked), the Kd was roughly 7 nM (KEAP1 (Homo sapiens, UniProt Q14145); binding, MST; pH 6).
`CC[C@H](C)[C@H](NC(=O)[C@@H]1CCCN1C(=O)[C@H](CO)NC(=O)[C@H](CC(C)C)NC(=O)CNC(=O)[C@H](CO)NC(=O)[C@H](Cc1ccccc1)NC(=O)[C@H](Cc1ccccc1)NC(=O)[C@H](CO)NC(=O)[C@@H](N)[C@@H](C)O)C(=O)N[C@@H](CCC(=O)O)C(=O)N[C@@H](CCC(=O)O)C(=O)N[C@@H](CC(=O)O)C(=O)N[C@@H](C)C(=O)N[C@@H](Cc1c[nH]cn1)C(=O)O` gave a Kd of 240 nM (Serine/threonine-protein phosphatase 2A 56 kDa regulatory subunit alpha isoform (Homo sapiens, UniProt Q15172); binding, bead-based Langmuir fit; pH 7.5).
The Kd of `CSCC[C@H](NC=O)C(=O)N[C@@H](CCCNC(=N)N)C(=O)N[C@H](C(=O)NCC(=O)N[C@@H](CC(N)=O)C(=O)N[C@@H](C)C(=O)N[C@@H](CC(N)=O)C(=O)NCC(=O)NCC(=O)N[C@@H](CCCCNC(=S)Nc1ccc2c(c1)C(=O)OC21c2ccc(O)cc2Oc2cc(O)ccc21)C(=O)O)[C@@H](C)O` is reported as 7750 ± 480 nM (Uncharacterized protein YejA (yejA, Escherichia coli, UniProt P33913, R475A); binding, fluorescence polarisation; YejA variant R457A).
